Measurements collected from several papers.
Numbered parts are unrelated; each lists some results of a single study. Positions count from the first letter of the parent shown.

Sample 1
Target: PABPC1L2, full length, GST fusion (mouse, UniProt A0ABA7IW68)
Method: RNAcompete
Molecule type: RNA
Medium: in vitro
Tested at: 20 nM
Notes: 7-mer, probes averaged, single round
Baseline: mean of 7-mers
Direction: higher = stronger binding
Construct (chain): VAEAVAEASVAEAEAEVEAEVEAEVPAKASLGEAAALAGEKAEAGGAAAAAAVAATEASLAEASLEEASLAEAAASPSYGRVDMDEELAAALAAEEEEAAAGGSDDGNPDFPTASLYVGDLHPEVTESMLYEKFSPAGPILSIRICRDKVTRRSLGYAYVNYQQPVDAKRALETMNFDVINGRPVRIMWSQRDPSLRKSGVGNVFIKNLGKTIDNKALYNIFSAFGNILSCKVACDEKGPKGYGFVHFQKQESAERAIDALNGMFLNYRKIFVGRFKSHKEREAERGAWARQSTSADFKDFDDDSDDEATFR
| Strand | 7-mer Z-score |
| --- | --- |
| UCUCCCU | -0.322 |
| AGUGGGA | 0.35 |
| GUGUCGC | -0.215 |
| GAUUAGA | -0.112 |
| UCAGGCG | -0.0101 |
| GUACCUG | -0.271 |
| GCGACGU | -0.104 |
| AUUGCAU | -0.258 |

Sample 2
Target: UBE2D3 UBC core domain (UniProt P61077)
Chain of UniProt P61077 (whole entry, looked up): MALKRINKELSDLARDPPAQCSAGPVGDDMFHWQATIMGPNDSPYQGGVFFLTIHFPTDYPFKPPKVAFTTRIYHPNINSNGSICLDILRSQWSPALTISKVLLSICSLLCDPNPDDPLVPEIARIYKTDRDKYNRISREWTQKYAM
Method: yeast two-hybrid
Medium: yeast
Notes: mostly zero background
Baseline: not given
Direction: higher = stronger interaction
B1: TRIM31 RING domain (UniProt Q9BZY9); chain FVNKLQEEVICPICLDILQKPVTIDCGHNFCLKCITQIGETSCGFFKCPLCKTSVRKNAIRF
B2: ANAPC11 RING domain (UniProt Q9NYG5); chain GICRMAFNGCCPDCKVPGDDCPLVWGQCSHCFHMHCILKWLHAQQVQQHCPMCRQEWKFKE
B3: RNF31 RING domain (UniProt Q96EP0); chain AFLRRLLAQECAVCGWALPHNRMQALTSCECTICPDCFRQHFTIALKEKHITDMVCPACGRPDLTDDTQLL
B4: MEX3B RING domain (UniProt Q6ZN04); chain SGLRRKGSRDCSVCFESEVIAALVPCGHNLFCMECANRICEKSEPECPVCHTAVTQAIRIF
B5: RNF122 RING domain (UniProt Q9H9V4); chain AKKLQLYGQTCAVCLEDFKGKDELGVLPCQHAFHRKCLVKWLEVRCVCPMCNKPIASPSEAT
B6: TRIM26 RING domain (UniProt Q12899); chain PLRSLEEEVTCSICLDYLRDPVTIDCGHVFCRSCTTDVRPISGSRPVCPLCKKPFKKENIRP
B7: DEF8 RING domain (UniProt Q6ZN54); chain AGRLGCSLTEIHTLFAKHIKLDCERCQAKGFVCELCREGDVLFPFDSHTSVCADCSAVFHRDCYYDNSTTCPKCARLSLRK
| Molecule | lacZ reporter activity |
| --- | --- |
| B1 (TRIM31 RING domain) | 0 |
| YPEEVDDDLICHICLQALLDPLDTPCGHTYCTLCLTNFLVEKDFCPMDRKPLVLQHCKK (LNX1 RING domain (UniProt Q8TBB1)) | 0 |
| B2 (ANAPC11 RING domain) | 0 |
| B3 (RNF31 RING domain) | 0 |
| RYRQMEERITCPICIDSHIRLVFQCGHGACAPCGSALSACPICRQPIRDRIQIF (MIB2 RING domain (UniProt Q96AX9)) | 0 |
| B4 (MEX3B RING domain) | 0 |
| B5 (RNF122 RING domain) | 0 |
| LDAASGHPLVCPLCHGQYERPCLLDCFHDFCTGCLRGRATDGRLSCPLCQHQTLVKGPSG (Rnf207 RING domain (UniProt Q3V3A7)) | 0 |
| B6 (TRIM26 RING domain) | 0 |
| YCEMGSTFQLCKICAENDKDVKIEPCGHLMCTSCLTAWQESDGQGCPFCRCEIKGTEPII (CBLB RING domain (UniProt Q13191)) | 0 |
| B7 (DEF8 RING domain) | 0 |

Sample 3
Target: CCNE1, cyclin fold, Cln2 fusion (human)
Method: yeast growth competition, sequencing
Medium: yeast
Notes: strong parent motif
Baseline: not given
Direction: higher = stronger binding
Parent: viral docking peptide; KGVKRKLFAEDSS; partner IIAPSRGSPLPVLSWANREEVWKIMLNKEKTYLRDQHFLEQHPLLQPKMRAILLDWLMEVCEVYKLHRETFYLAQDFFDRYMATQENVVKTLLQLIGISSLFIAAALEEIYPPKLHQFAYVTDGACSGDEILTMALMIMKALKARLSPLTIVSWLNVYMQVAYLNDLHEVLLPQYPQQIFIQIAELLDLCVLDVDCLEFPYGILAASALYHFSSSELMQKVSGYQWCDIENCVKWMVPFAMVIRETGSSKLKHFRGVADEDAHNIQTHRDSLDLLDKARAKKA
| Variant | normalised enrichment score |
| --- | --- |
| L7M | 1.17 |
| R5A | 0.504 |
| E10F | 6.19 |
| L7I | 4.07 |
| V3E | 1.32 |
| K4I | 7.63 |
| L7C | 0.517 |
| V3K | 0.585 |
| S12Y | 7.02 |
| F8I | 0.627 |
| D11G | 7.4 |
| G2H | 7.27 |
| R5I | 1.08 |
| A9T | 7.42 |
| E10T | 6.78 |
| A9L | 7.33 |
| D11Q | 6.72 |
| A9K | 7.03 |
| F8L | 0.741 |
| K4P | 3.83 |
| L7R | 0.688 |

Sample 4
Target: TAR DNA-binding protein 43, full length, His tag (TARDBP, Homo sapiens, UniProt Q13148, residues 1-414)
Method: RNA Bind-n-Seq
Molecule type: RNA
Medium: in vitro
Tested at: 20 nM
Notes: 6-mer, flanks averaged, single round
With: 150 mM KCl
Baseline: input library
Direction: higher = stronger binding
| Strand | 6-mer enrichment (R) |
| --- | --- |
| GGGCGC | 3.73 |
| UUUCGA | 0.578 |
| AUCUUC | 0.524 |
| CCAAAU | 0.642 |
| GGAUGU | 1.49 |
| ACUUUU | 0.66 |
| UUCGGG | 1.65 |
| AGAAAA | 0.693 |

Some of these lines once more (sample 3):
| Variant | normalised enrichment score |
| --- | --- |
| E10F | 6.19 |
| L7I | 4.07 |
| V3E | 1.32 |
| K4I | 7.63 |
| L7C | 0.517 |
| V3K | 0.585 |
| S12Y | 7.02 |
| F8I | 0.627 |
